Results pooled from the literature.
Each line is one published result; not all experiments were run side by side. Several values in a cell are separate wells, animals, samples, runs or records. ± gives the spread as reported.
FKBP4 FK1 domain: Peptidyl-prolyl cis-trans isomerase FKBP4, FK1 domain (FKBP4, Homo sapiens, UniProt Q02790)
Sequence of UniProt Q02790 (whole entry, looked up): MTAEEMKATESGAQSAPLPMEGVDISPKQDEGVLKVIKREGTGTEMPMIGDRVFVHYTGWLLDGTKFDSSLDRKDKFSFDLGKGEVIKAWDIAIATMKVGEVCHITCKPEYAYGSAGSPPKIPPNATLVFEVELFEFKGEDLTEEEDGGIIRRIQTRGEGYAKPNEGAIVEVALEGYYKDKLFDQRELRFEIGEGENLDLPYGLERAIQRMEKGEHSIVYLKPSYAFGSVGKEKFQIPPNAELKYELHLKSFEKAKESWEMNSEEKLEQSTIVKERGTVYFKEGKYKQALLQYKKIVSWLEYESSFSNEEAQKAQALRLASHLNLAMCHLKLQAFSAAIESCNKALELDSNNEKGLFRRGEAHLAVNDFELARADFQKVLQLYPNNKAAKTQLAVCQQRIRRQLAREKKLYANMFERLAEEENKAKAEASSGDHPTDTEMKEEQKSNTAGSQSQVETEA
Tumor necrosis factor receptor superfamily member 1A extracellular domain: Tumor necrosis factor receptor superfamily member 1A, extracellular domain (Homo sapiens, UniProt P19438)
Sequence of UniProt P19438 (whole entry, looked up): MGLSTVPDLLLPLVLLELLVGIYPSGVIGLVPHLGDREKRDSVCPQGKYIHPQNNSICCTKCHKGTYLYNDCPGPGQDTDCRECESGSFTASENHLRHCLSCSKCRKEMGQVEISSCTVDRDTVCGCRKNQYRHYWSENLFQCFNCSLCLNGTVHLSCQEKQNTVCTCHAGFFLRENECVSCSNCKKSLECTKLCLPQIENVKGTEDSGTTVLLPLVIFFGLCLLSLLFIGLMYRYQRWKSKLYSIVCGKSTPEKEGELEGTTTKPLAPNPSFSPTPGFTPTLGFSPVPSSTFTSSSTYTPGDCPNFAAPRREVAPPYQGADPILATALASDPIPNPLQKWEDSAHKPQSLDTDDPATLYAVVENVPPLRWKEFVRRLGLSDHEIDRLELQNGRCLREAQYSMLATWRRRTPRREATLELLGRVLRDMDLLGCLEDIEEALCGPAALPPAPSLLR
INS amyloid fibrils: Insulin, amyloid fibrils (INS, Bos taurus, UniProt P01317)
Sequence of UniProt P01317 (whole entry, looked up): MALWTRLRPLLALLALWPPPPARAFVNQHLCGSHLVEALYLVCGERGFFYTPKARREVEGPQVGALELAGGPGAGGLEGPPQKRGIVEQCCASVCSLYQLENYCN
14-3-3 protein epsilon: 14-3-3 protein epsilon (Homo sapiens, UniProt P62258)
Sequence of UniProt P62258 (whole entry, looked up): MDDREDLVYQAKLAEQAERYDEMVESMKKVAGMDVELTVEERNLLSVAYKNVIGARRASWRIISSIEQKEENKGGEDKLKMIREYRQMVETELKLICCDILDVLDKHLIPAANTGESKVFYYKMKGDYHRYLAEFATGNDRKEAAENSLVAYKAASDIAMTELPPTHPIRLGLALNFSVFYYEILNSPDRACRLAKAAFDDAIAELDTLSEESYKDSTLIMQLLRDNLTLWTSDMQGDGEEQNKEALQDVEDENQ
ALDH1B1: Aldehyde dehydrogenase X, mitochondrial (ALDH1B1, Homo sapiens, UniProt P30837)
Sequence of UniProt P30837 (whole entry, looked up): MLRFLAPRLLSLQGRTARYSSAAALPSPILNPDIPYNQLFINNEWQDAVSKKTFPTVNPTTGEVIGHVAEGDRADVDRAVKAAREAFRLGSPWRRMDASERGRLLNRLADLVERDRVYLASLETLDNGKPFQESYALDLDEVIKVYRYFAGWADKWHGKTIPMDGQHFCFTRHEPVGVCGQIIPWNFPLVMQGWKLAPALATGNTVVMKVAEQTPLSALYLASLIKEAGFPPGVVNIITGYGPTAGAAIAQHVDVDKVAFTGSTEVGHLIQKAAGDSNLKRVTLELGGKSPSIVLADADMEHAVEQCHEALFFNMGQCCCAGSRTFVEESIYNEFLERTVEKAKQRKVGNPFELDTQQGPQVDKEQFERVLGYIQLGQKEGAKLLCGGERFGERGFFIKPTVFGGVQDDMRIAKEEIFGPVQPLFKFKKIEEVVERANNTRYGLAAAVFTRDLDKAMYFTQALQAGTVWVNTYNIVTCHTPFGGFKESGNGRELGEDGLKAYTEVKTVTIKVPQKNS
ISOC2: Isochorismatase domain-containing protein 2 (ISOC2, Homo sapiens, UniProt Q96AB3)
Sequence of UniProt Q96AB3 (whole entry, looked up): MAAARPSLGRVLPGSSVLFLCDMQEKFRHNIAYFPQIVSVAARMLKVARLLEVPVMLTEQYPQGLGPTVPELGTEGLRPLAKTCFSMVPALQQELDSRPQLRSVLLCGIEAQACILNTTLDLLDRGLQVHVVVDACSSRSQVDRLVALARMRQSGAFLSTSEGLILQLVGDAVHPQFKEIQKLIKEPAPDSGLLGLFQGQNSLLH
Sequence of UniProt P0DPI2 (whole entry, looked up): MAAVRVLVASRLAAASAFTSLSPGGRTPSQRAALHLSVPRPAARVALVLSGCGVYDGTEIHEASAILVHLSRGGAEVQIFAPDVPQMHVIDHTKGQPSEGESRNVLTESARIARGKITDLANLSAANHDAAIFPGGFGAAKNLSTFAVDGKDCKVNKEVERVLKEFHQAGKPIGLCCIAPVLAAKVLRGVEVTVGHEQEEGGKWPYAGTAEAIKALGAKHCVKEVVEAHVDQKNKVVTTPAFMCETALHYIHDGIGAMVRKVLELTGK
Sequence of UniProt Q04609 (whole entry, looked up): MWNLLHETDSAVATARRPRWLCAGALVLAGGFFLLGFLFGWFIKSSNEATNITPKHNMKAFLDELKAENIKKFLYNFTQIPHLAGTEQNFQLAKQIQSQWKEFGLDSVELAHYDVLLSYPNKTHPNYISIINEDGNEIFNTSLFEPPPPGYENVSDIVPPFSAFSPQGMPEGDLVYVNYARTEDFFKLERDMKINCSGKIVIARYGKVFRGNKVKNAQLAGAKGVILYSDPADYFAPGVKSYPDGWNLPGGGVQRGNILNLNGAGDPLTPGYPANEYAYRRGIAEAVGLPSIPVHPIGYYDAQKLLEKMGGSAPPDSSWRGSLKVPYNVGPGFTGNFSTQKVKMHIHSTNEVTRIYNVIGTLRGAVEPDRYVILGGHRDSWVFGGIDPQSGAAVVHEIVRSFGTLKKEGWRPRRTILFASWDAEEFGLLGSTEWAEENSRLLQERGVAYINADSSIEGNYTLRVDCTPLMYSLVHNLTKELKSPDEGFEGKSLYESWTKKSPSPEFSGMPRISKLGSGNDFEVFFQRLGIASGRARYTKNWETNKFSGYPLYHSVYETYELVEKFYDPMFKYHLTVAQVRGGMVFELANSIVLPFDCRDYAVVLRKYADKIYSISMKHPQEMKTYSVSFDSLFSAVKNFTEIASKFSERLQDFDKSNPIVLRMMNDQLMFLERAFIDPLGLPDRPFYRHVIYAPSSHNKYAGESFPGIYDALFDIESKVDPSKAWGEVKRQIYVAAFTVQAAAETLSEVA
Sequence of UniProt Q9SQR3 (whole entry, looked up): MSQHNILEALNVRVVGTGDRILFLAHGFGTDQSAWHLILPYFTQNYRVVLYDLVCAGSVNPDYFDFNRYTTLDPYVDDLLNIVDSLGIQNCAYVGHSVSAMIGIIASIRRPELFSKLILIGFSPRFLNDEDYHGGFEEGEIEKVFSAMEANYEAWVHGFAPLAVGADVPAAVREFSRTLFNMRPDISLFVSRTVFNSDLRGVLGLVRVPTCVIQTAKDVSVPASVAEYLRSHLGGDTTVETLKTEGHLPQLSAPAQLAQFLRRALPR
Sequence of UniProt Q91Y77 (whole entry, looked up): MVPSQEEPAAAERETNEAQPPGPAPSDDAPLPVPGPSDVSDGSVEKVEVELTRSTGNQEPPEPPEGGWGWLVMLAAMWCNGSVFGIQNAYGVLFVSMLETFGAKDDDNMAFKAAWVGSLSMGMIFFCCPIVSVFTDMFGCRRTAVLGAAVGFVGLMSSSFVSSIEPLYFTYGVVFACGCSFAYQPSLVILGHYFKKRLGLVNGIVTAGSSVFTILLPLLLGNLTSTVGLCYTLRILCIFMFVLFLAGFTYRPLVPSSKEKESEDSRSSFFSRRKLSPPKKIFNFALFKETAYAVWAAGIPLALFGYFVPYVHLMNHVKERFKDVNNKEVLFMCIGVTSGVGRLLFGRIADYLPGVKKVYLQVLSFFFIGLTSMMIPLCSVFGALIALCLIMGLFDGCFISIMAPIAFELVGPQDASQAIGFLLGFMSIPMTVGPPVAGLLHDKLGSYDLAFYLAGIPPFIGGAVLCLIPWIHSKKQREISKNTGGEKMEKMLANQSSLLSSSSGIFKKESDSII
Sequence of UniProt P07737 (whole entry, looked up): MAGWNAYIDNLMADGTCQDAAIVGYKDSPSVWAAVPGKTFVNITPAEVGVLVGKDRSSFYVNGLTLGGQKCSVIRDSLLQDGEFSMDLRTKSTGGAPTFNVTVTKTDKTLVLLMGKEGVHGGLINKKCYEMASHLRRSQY
Sequence of UniProt Q9EQY0 (whole entry, unmodified, looked up): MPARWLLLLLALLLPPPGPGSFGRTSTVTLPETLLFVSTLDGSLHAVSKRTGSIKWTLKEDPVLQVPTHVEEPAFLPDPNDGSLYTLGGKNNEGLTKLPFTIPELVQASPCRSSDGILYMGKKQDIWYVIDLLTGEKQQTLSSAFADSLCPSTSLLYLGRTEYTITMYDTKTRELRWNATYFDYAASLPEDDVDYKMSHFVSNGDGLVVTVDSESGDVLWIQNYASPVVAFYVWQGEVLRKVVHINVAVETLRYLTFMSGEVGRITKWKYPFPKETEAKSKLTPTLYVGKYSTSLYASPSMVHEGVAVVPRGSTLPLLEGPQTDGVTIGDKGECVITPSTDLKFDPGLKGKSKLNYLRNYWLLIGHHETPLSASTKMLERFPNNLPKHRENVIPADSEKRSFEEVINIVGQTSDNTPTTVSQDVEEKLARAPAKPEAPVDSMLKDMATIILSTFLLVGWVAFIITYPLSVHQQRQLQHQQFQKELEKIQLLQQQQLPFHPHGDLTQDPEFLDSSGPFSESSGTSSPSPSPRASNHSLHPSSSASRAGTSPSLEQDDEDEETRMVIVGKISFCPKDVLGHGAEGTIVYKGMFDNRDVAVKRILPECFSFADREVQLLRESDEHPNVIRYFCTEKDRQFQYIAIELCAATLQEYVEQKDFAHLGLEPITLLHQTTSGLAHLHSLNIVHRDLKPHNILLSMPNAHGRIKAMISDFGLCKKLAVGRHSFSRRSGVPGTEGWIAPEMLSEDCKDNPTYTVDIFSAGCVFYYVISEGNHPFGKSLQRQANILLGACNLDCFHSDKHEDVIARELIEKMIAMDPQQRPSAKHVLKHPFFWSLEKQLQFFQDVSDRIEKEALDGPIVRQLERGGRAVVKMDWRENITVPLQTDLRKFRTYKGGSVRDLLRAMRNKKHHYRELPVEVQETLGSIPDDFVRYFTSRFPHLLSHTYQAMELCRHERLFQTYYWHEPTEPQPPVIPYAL

`C=CC1CN(Cc2ccccn2)C(=O)C2CCCC1N2S(=O)(=NC)c1cc(Cl)cc(Cl)c1` (centres unmarked) gave a Kd of over 40 µM (FKBP4 FK1 domain; competitive fluorescence polarization; protein 10 nM, with: 1 nM tracer).
With `CC[C@H](C)[C@H](NC(=O)[C@H](Cc1ccccc1)NC(=O)[C@H](Cc1c[nH]c2ccccc12)NC(=O)[C@H](CO)NC(C)=O)C(=O)N[C@@H](CCC(N)=O)C(=O)N[C@@H](CO)C(=O)N[C@@H](CC(C)C)C(=O)N[C@@H](CS)C(=O)N[C@@H](C)C(=O)N[C@@H](CCSC)C(=O)N[C@@H](CC(C)C)C(=O)N[C@@H](CCCCN)C(=O)N[C@@H](CCC(N)=O)C(=O)N[C@@H](Cc1ccc(O)cc1)C(=O)N[C@@H](C)C(=O)N[C@@H](CC(=O)O)C(=O)N[C@@H](CCCCN)C(=O)N[C@@H](CC(C)C)C(=O)N[C@@H](CCC(=O)O)C(=O)N[C@@H](Cc1ccccc1)C(=O)N[C@@H](CCSC)C(=O)N[C@@H](Cc1c[nH]cn1)C(=O)N[C@H](C(=O)N[C@@H](CC(C)C)C(=O)N[C@H](C(N)=O)[C@@H](C)O)[C@@H](C)CC` the Kd was over 20 µM (BAK1 (Homo sapiens, UniProt Q16611); binding, FP; pH 8).
`C=CC(=O)N1CCCN(C(=O)c2cc(Sc3cnc(NC(=O)C4CC4)s3)c(C)cc2OC)C[C@H]1C` gave a Kd of over 10 µM (EGFR (Homo sapiens, UniProt P00533); cell-free assay, competition with immobilised ligand).
`O=C(CCc1ccccc1)Nc1ccc(-c2ccnc(C(=O)O)c2)cc1` gave a Kd of 550 ± 157 µM (Tumor necrosis factor receptor superfamily member 1A extracellular domain; binding, SPR OneStep).
`COc1ccc(C(=O)NO)cc1NC(=O)c1ccc(-c2ccccc2)cc1` gave a Kd of over 30.2 µM (GATD3 (Homo sapiens, UniProt P0DPI2); inhibitor, competition pulldown; SW620 and MV4-11 lysate; 1 h).
With `F[B-]1(F)OC(c2ccc(N(c3ccccc3)c3ccccc3)cc2)=Nc2sc3cc(C(F)(F)F)ccc3[n+]21` the Kd was 0.297 ± 0.05 µM (INS amyloid fibrils; binding, fluorescence saturation).
`C=CC1CN(Cc2ccccn2)C(=O)C2CCCC1N2S(=O)(=NC1C=CCCC1)c1cc(Cl)cc(Cl)c1` (mixture of isomers) gave a Kd of over 40 µM (FKBP4 FK1 domain; competitive fluorescence polarization; protein 10 nM, with: 1 nM tracer).
`CCOC(=O)C1CC(CC)C2C=CC3CCN(C(=O)C4CCC5C=CC6(CCCN6C(=O)C(Cc6ccccc6Cl)NC(C)=O)C(=O)N54)C3C(=O)N12` (centres unmarked) has a Kd of 210 µM (Profilin-1 (PFN1, Homo sapiens, UniProt P07737); binding, NMR).
The Kd of `CN(C)c1ccc(/C=C/c2cc(/C=C3\Sc4ccccc4N3CCCN3CCCC3)c3ccccc3[n+]2C)cc1` is reported as 2.37 µM (hTERT promoter G-quadruplex DNA (human); isothermal titration calorimetry; pH 7.4, 25 °C, 2% DMSO, 60 mM KCl).
For `CC(=O)N[C@@H](CCCNC(=N)N)C(=O)N[C@H](C(=O)N[C@@H](CCCCN)C(=O)N[C@@H](CO)C(=O)N[C@@H](CCCNC(=N)N)C(=O)N[C@H](C(=O)N[C@@H](Cc1c[nH]c2ccccc12)C(=O)N[C@@H](C)C(=O)NCC(N)=O)[C@@H](C)OP(=O)(O)O)[C@@H](C)O`, the Kd was 0.119 µM (14-3-3 protein epsilon; binding, SPR).
The Kd of `CCc1nc2cc3ccccc3cc2cc1C(=O)N1CCC[C@H]1C(=O)N[C@@H](C/C=C/C[C@H](NC(=O)[C@@H]1CCCN1C(=O)c1cc2cc3ccccc3cc2nc1CC)C(=O)N[C@@H](CCCCN)C(=O)NCCCN)C(=O)N[C@@H](CCCCN)C(=O)NCCCN` is reported as 0.033 µM ((CUG)2 RNA; SPR).
For `CN(C)c1ccc(C2=Nc3sc4cc(C(F)(F)F)ccc4[n+]3[B-](F)(F)O2)cc1`, the Kd was 0.695 ± 0.066 µM (INS amyloid fibrils; binding, fluorescence saturation).
For `Cc1cccc2c1N(C(=O)n1ccnn1)CC2`, the Kd was 42.1 µM (D14 (Arabidopsis thaliana, UniProt Q9SQR3); ITC; mean of 3 runs).
`CCCOc1ccc(-c2ccc(C#N)cc2)cc1` gave a Kd of 0.356 µM (Monocarboxylate transporter 10 (Rattus norvegicus, UniProt Q91Y77); binding, ITC).
`CC[C@H](C)[C@H](NC(=O)[C@@H](NC(=O)[C@H](CO)NC(=O)[C@@H](NC(=O)[C@@H]1CCCN1C(=O)[C@H](CC(C)C)NC(=O)[C@H](CCCNC(=N)N)NC(=O)[C@H](CO)NC(=O)[C@H](CC(N)=O)NC(=O)[C@H](C)N)[C@@H](C)O)[C@@H](C)CC)C(=O)O` gave a Kd of over 1000 µM (Na(+)/H(+) exchange regulatory cofactor NHE-RF2 (Homo sapiens, UniProt Q15599); binding, FP).
With `Cn1ncc2cc(-c3cncc(Cl)c3N3CCC4(CCNC4=O)CC3)ccc21` the Kd was over 22 µM (ERN1 (Homo sapiens, UniProt O75460); cell-free assay; lysate).
The Kd of `CSc1nc2cc(Cl)c(Oc3cccc(Cl)c3Cl)cc2[nH]1` is reported as 11.8 µM (ALDH1B1; binding, SPR).
`COC1(C2=NCCN2)COc2ccccc2O1` (centres unmarked) has a Kd of 0.00165 ± 0.0001 µM (α2-adrenergic receptor chimera; [3H]compound saturation binding; HEK293 membranes; α2c(NT)/α2a(TM1-CT)-AR chimera).
`COc1cc(-c2ccc(N3CCOCC3)cc2)cc(C=O)c1O` gave a Kd of 14.7 µM (Serine/threonine-protein kinase/endoribonuclease IRE1 (Mus musculus, UniProt Q9EQY0, N772Y); microscale thermophoresis).
`C=C[C@H]1CN(Cc2ccccn2)C(=O)[C@@H]2CCC[C@H]1N2[S@@+]([O-])c1cc(Cl)cc(Cl)c1` gave a Kd of 5.21 µM (FKBP4 FK1 domain; competitive fluorescence polarization; protein 10 nM, with: 1 nM tracer).
With `CC(/C=C/C(=O)NO)=C\[C@@H](C)C(=O)c1ccc(N(C)C)cc1` the Kd was over 30.2 µM (ISOC2; inhibitor, competition pulldown; SW620 and MV4-11 lysate; 1 h).
The Kd of `O=C(O)c1ccnc(-c2ccc3[nH]ccc3c2)c1` is reported as 627 ± 8 µM (Tumor necrosis factor receptor superfamily member 1A extracellular domain; binding, SPR OneStep).
The Kd of `C=CC(=O)N1CC2(CCN(c3nc(OC4CCN(CCCOC)CC4)nc4c(OCC(F)(F)F)c(-c5c(C)ccc6[nH]ncc56)c(C5CC5)cc34)CC2)C1` is reported as 1.39 ± 0.15 µM (GTPase KRas, GDP-bound (KRAS, Homo sapiens, UniProt P01116, A146T); SPR).
For `O=C(O)c1cc(-c2ccc(F)cc2)ccn1`, the Kd was 1330 ± 50 µM (Tumor necrosis factor receptor superfamily member 1A extracellular domain; binding, SPR OneStep injection; fragment hits, kinetic fit).
`O=C([O-])CN1CCN(CC(=O)[O-])CCN(CC(=O)NC[C@H]2CC[C@H](C(=O)N[C@@H](Cc3ccc4ccccc4c3)C(=O)NCCCC[C@H](NC(=O)N[C@@H](CCC(=O)O)C(=O)O)C(=O)O)CC2)CCN(CC(=O)[O-])CC1.[Ga+3]` has a Kd of 0.013 µM (FOLH1 (Homo sapiens, UniProt Q04609); binding, radioligand).
With `CN(C)c1ccc2c(c1)C(=O)N(CCc1ccc(O)cc1)C2=O` the Kd was 9.03 µM and ~9 µM (CA2 (Homo sapiens, UniProt P00918); binding).
`O=C(NO)c1cnc(NC2(c3cccc(F)c3)CCCCC2)nc1` has a Kd of over 30.2 µM (ISOC2; inhibitor, competition pulldown; SW620 and MV4-11 lysate; 1 h).
For `CC(=O)N[C@@H](CCCNC(=N)N)C(=O)N[C@H](C(=O)N[C@@H](CCCCN)C(=O)N[C@@H](CO)C(=O)N[C@@H](CCCNC(=N)N)C(=O)N[C@H](C(=O)N[C@@H](Cc1c[nH]c2ccccc12)C(=O)N[C@@H](C)C(=O)NCC(=O)N[C@@H](CCC(=O)O)C(=O)N[C@@H](CCCCN)C(=O)N[C@@H](CO)C(=O)N[C@@H](CCCCN)C(=O)N[C@@H](CCCNC(=N)N)C(N)=O)[C@@H](C)OP(=O)(O)O)[C@@H](C)O`, the Kd was 0.15 µM (14-3-3 protein epsilon; binding, SPR).
For `NS(=O)(=O)c1cc2c(cc1Cl)NC(CC1CCCC1)NS2(=O)=O` (centres unmarked), the Kd was 0.71 µM (ALDH1B1; binding, SPR).
